Assay results of several laboratories.
Numbered parts are unrelated; each lists some results of a single study. “And” joins repeats or separate records; there may be more than shown.
UniProt Q16659, sequence (whole entry, looked up): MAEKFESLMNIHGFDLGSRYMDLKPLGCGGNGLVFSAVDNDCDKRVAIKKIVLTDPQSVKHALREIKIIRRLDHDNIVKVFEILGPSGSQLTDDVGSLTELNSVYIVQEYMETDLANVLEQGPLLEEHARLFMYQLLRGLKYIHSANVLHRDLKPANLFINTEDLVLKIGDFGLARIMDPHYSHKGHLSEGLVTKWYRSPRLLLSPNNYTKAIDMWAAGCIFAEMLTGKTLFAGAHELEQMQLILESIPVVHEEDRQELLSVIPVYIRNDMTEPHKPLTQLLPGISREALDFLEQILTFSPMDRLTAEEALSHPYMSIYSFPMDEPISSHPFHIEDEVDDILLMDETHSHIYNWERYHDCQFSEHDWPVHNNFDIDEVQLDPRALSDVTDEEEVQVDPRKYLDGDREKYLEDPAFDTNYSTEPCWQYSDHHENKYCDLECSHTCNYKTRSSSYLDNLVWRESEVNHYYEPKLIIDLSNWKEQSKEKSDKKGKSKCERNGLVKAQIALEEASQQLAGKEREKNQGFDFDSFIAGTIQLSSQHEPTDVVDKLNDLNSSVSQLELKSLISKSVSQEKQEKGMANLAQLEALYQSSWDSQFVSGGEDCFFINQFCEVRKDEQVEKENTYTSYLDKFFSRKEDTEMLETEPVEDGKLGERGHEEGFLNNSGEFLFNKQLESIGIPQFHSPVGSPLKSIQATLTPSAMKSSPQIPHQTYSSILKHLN
UniProt P23443, sequence (whole entry, looked up): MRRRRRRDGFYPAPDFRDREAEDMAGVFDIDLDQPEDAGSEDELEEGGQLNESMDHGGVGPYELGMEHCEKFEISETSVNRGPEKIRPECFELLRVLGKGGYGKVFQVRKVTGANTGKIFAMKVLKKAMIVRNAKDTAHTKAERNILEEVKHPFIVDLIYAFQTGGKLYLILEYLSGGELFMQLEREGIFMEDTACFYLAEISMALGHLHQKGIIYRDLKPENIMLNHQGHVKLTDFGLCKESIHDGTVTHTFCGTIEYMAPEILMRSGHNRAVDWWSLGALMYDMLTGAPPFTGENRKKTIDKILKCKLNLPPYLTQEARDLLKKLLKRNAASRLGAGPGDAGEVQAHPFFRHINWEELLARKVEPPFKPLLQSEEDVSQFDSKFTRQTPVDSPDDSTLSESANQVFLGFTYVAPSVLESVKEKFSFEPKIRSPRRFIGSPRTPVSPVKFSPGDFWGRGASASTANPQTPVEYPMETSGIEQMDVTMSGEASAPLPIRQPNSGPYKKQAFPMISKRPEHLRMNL
UniProt Q8N5S9, sequence (whole entry, looked up): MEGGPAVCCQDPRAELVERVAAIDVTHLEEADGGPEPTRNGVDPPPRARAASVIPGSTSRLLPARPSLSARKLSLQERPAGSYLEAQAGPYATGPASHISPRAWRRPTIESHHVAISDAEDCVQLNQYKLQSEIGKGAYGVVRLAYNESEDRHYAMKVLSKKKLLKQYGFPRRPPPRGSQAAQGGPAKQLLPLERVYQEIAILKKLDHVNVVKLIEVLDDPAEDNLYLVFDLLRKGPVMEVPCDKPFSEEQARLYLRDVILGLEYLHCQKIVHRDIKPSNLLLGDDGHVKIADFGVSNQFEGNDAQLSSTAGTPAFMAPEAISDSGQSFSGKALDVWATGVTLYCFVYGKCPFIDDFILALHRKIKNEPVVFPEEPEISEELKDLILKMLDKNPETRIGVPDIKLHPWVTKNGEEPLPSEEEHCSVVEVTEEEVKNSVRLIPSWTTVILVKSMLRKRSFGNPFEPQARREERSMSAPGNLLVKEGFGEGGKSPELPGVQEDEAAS
UniProt P42336, sequence (whole entry, unmodified, looked up): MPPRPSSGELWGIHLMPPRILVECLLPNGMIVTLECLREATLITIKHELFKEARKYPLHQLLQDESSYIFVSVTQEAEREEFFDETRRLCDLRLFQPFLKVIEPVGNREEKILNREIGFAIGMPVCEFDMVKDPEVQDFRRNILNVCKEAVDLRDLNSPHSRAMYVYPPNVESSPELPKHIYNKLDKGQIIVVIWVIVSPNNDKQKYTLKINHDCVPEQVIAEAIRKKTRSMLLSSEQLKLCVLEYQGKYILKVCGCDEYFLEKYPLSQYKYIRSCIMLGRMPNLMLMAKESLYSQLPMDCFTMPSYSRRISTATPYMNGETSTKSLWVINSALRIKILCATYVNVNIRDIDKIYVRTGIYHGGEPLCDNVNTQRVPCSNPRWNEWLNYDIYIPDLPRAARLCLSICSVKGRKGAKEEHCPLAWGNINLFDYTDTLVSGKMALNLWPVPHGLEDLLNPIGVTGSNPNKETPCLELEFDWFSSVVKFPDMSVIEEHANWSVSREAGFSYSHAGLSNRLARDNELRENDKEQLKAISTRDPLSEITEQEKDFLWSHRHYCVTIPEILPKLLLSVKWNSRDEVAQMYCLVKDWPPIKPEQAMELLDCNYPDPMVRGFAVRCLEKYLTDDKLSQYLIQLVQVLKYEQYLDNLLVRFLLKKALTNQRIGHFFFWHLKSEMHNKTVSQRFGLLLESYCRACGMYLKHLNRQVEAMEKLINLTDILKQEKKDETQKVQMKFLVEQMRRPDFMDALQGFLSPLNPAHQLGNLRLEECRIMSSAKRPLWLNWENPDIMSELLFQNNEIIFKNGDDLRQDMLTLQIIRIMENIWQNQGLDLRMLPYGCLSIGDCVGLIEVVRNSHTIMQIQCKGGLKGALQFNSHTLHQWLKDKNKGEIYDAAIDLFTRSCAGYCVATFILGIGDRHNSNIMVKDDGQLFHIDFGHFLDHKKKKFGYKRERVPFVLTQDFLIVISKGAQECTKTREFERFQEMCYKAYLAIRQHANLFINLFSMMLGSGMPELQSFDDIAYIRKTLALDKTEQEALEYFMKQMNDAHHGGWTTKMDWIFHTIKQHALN
UniProt P23458, sequence (whole entry, looked up): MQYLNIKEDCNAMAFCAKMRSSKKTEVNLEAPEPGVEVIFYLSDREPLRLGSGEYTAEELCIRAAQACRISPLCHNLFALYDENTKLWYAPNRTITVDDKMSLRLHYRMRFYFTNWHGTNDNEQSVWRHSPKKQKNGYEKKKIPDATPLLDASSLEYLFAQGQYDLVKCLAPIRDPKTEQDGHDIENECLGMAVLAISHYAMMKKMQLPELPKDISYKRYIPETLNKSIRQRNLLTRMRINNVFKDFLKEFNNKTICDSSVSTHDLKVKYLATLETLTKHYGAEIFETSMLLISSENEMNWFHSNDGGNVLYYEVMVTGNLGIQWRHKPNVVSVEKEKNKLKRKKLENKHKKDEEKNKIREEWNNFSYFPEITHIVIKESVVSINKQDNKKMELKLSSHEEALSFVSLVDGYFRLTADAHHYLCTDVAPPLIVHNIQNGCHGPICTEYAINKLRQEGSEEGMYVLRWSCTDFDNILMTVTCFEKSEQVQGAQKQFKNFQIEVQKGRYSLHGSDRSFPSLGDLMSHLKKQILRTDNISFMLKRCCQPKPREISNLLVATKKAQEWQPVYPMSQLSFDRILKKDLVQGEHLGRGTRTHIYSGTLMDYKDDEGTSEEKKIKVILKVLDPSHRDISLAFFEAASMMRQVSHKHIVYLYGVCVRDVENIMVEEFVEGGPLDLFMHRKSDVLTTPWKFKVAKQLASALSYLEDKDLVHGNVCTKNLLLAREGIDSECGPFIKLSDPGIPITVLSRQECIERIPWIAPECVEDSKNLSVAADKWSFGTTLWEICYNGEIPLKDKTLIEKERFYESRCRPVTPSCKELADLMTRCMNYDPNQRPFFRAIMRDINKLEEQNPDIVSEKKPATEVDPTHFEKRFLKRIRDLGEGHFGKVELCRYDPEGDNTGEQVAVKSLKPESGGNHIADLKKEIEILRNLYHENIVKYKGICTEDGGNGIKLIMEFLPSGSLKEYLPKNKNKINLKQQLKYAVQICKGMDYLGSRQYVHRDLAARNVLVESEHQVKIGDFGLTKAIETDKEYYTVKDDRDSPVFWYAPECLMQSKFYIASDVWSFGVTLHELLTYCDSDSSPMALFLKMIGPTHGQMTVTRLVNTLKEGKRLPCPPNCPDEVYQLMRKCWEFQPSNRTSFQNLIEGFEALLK
UniProt Q9UIK4, sequence (whole entry, looked up): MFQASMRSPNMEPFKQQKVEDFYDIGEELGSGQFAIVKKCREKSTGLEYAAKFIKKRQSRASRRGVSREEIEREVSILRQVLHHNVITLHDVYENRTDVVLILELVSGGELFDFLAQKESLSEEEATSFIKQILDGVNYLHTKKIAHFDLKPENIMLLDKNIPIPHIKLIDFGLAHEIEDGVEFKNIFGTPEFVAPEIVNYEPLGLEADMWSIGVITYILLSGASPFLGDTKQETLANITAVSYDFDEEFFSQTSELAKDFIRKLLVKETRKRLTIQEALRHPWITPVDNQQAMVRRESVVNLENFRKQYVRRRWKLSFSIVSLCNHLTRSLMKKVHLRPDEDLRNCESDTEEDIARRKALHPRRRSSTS
UniProt P51956, sequence (whole entry, looked up): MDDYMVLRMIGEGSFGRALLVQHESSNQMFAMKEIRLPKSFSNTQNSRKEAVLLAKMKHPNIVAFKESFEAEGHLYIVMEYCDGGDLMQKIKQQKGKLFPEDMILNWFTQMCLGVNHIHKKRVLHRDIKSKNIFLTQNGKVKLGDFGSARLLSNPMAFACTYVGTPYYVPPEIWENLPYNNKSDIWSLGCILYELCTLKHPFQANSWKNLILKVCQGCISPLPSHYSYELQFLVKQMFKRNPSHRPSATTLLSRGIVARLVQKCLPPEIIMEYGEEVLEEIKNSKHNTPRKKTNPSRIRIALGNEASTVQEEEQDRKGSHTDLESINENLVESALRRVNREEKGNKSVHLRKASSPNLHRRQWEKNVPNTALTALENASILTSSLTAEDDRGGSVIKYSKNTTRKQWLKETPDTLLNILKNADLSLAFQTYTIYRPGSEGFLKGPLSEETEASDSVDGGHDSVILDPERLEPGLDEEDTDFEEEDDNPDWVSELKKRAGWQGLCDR

Block 1
Cell line: Gaucher fibroblasts L444P/L444P
Technique: 4-MUG hydrolysis, cell lysate
Tested at: 10 µM
Reference: DMSO
`Ic1ccc(Nc2nc(NCCN3CCOCC3)nc(N3CC4CCC(C3)O4)n2)cc1` gave a GCase activity of 103% and 134% and 110% and 138%.
The GCase activity of `CCN(CC)c1nc(NCCN2CCOCC2)nc(Nc2ccc(I)cc2)n1` is reported as 72.8% and 69.3% and 81.8% and 65.2% and 73.3%.
With `Ic1ccc(Nc2nc(NCCN3CCCCC3)nc(N3CCOCC3)n2)cc1` the GCase activity was 86.9% and 99.7% and 110% and 102% and 92% and 81.5%.
`c1ccc(Nc2nc(NCCN3CCOCC3)nc(N3CCOCC3)n2)cc1` has a GCase activity of 122% and 120% and 110% and 111% and 106%.
For `CCOc1ccc2nc(Sc3nc(Nc4ccc(OC)cc4)nc(N4CCOCC4)n3)sc2c1`, the GCase activity was 223% and 248% and 238% and 227% and 214%.
`CCOc1ccc2nc(Sc3nc(NCCN4CCOCC4)nc(Nc4ccc(I)cc4)n3)sc2c1` gave a GCase activity of 111% and 123% and 133% and 118% and 134%.
`Ic1ccc(Nc2nc(NCCN3CCOCC3)nc(N3CC4CC3CO4)n2)cc1` (stereo not drawn) has a GCase activity of 112% and 106% and 105% and 99.3% and 101%.
With `Ic1ccc(Nc2nc(NCCCN3CCOCC3)nc(N3CCOCC3)n2)cc1` the GCase activity was 151% and 157% and 141% and 118% and 111% and 124%.

Block 2
Cell line: MDA-MB-231
Read-out: cell viability
Technique: CellCounting-Lite
Tested at: 0.9145 nM
Temperature: 37 °C
Reading: higher = more viable cells
For `CCn1cnc2c(NCc3nc4cc(F)c(F)cc4[nH]3)nc(N3CCn4ncnc4C3)nc21`, the luminescence signal was 547000 a.u. and 506000 a.u. and 502000 a.u.
With `CCn1cnc2c(NCc3nc4cc(Cl)c(Cl)cc4[nH]3)nc(N3CCC(NC(C)=O)CC3)nc21` the luminescence signal was 523000 a.u. and 462000 a.u. and 447000 a.u.
`CC(=O)N1CCN(c2nc(NCc3nc4cc(Cl)c(Cl)cc4[nH]3)c3ncn(C)c3n2)CC1` gave a luminescence signal of 435000 a.u. and 483000 a.u. and 419000 a.u.
For `CCn1cnc2c(NCc3nc4cc(Cl)c(Cl)cc4[nH]3)nc(N3CCN(C(=O)c4ccncc4)CC3)nc21`, the luminescence signal was 491000 a.u. and 414000 a.u. and 477000 a.u.
The luminescence signal of `CCn1cnc2c(NCc3nc4ccc(F)c(F)c4[nH]3)nc(N3CCn4ncnc4C3)nc21` is reported as 537000 a.u. and 535000 a.u. and 526000 a.u.
With `CCn1cnc2c(NCc3nc4cc(Cl)c(Cl)cc4[nH]3)nc(N3CCN(C(=O)c4ccccc4)CC3)nc21` the luminescence signal was 476000 a.u. and 483000 a.u. and 449000 a.u.
`CCn1cnc2c(NCc3nc4cc(Cl)c(Cl)cc4[nH]3)nc(N3CCN(C(=O)c4cccnc4)CC3)nc21` gave a luminescence signal of 414000 a.u. and 437000 a.u. and 416000 a.u.
With `CCn1cnc2c(NCc3nc4cc(Cl)c(Cl)cc4[nH]3)nc(N3CCn4ncnc4C3)nc21` the luminescence signal was 529000 a.u. and 585000 a.u. and 496000 a.u.
With `CCn1cnc2c(NCc3nc4cc(Cl)c(Cl)cc4[nH]3)nc(N3CCN(S(C)(=O)=O)CC3)nc21` the luminescence signal was 544000 a.u. and 438000 a.u. and 494000 a.u.
The luminescence signal of `CCCCOc1nc(NCc2nc3cc(Cl)c(Cl)cc3[nH]2)c2ncn(CC)c2n1` is reported as 628000 a.u. and 670000 a.u. and 459000 a.u.

Block 3
SMILES: CN1C(=O)C(O)(C(=O)O)Oc2cc(F)ccc21 (stereo not drawn)
It gave 11.9% for inhibition (Arabidopsis thaliana; root length; Col-0, seedlings; 6.25 µg/mL).
For Zea mays; fresh weight; soil surface spray, 150 g ai/ha, 21 days, pre-emergence crop safety: inhibition read 16.5% and 21.6% and 17.4%.
The inhibition was 60.2% and 61.7% and 57.8% (Alopecurus japonicus; fresh weight; 150 g ai/ha, pre-emergence treatment).
The inhibition was 13.1% (Arabidopsis thaliana; hypocotyl length; Col-0, seedlings; 6.25 µg/mL).
Arabidopsis thaliana; hypocotyl length; Col-0; 50.0 µg/mL, 7 days, seed germination, dark — inhibition: 28.6%.
The inhibition was 22.7% (Arabidopsis thaliana; root length; Col-0, seedlings; 12.5 µg/mL).
For Oryza sativa; fresh weight; soil surface spray, 150 g ai/ha, 21 days, pre-emergence crop safety: inhibition read 8.9% and 8.7% and 9.4%.
Arabidopsis thaliana; root length; Col-0, seedlings; 100 µg/mL — inhibition: 63.2%.
For Arabidopsis thaliana; root length; Col-0, seedlings; 12.5 µg/mL; reference: water control: inhibition read 22.7%.
The inhibition was 28.6% (Arabidopsis thaliana; hypocotyl length; Col-0, seedlings; 50 µg/mL).
Arabidopsis thaliana; hypocotyl length; Col-0, seedlings; 25 µg/mL — inhibition: 24.4%.
The inhibition was 15.2% and 16.1% and 17% (Setaria viridis; fresh weight; 150 g ai/ha, pre-emergence treatment).
The inhibition was 48% and 43.8% and 43.3% (Eclipta prostrata; fresh weight; 150 g ai/ha, post-emergence treatment).
The inhibition was 7.4% (Arabidopsis thaliana; hypocotyl length; Col-0; 3.125 µg/mL, 7 days, seed germination, dark).

Block 4
SMILES: COc1cc(-c2nc3ccc(C(=O)NCCCN4CCN(c5cccc(C)c5C)CC4)cc3n2C2CCC2)cc(OC)c1OC
The remaining binding was 96% (Ribosomal protein S6 kinase beta-1 (RPS6KB1, Homo sapiens, UniProt P23443); binding, competition with immobilised ligand; 1 µM).
Protein kinase C theta type (PRKCQ, Homo sapiens, UniProt Q04759); binding, competition with immobilised ligand; 1 µM — remaining binding: 87%.
The remaining binding was 99% (Phosphatidylinositol 5-phosphate 4-kinase type-2 gamma (PIP4K2C, Homo sapiens, UniProt Q8TBX8); binding, competition with immobilised ligand; 1 µM).
For Fibroblast growth factor receptor 1 (FGFR1, Homo sapiens, UniProt P11362); binding, competition with immobilised ligand; 1 µM: remaining binding read 99%.
Mitogen-activated protein kinase 6 (MAPK6, Homo sapiens, UniProt Q16659); binding, competition with immobilised ligand; 1 µM — remaining binding: 92%.
For Serine/threonine-protein kinase RIO1 (RIOK1, Homo sapiens, UniProt Q9BRS2); binding, competition with immobilised ligand; 1 µM: remaining binding read 100%.
The remaining binding was 78% (Serine/threonine-protein kinase Nek3 (NEK3, Homo sapiens, UniProt P51956); binding, competition with immobilised ligand; 1 µM).
The remaining binding was 82% (Phosphatidylinositol 4,5-bisphosphate 3-kinase catalytic subunit alpha isoform (PIK3CA, Homo sapiens, UniProt P42336, E542K); binding, competition with immobilised ligand; 1 µM).
For Death-associated protein kinase 2 (DAPK2, Homo sapiens, UniProt Q9UIK4); binding, competition with immobilised ligand; 1 µM: remaining binding read 99%.
For Tyrosine-protein kinase Blk (BLK, Homo sapiens, UniProt P51451); binding, competition with immobilised ligand; 1 µM: remaining binding read 81%.
It gave 99% for remaining binding (FLT3 ITD human; KINOMEscan; 1000 nM; reference: DMSO control).
For Ribosomal protein S6 kinase alpha-6, N-terminal kinase domain (RPS6KA6, Homo sapiens, UniProt Q9UK32); binding, competition with immobilised ligand; 1 µM: remaining binding read 73%.
The remaining binding was 0% (Activin receptor type-1-like (ACVRL1, Homo sapiens, UniProt P37023); binding, competition with immobilised ligand; 1 µM).
Tyrosine-protein kinase JAK1, JH1 (JAK1, Homo sapiens, UniProt P23458); binding, competition with immobilised ligand; 1 µM — remaining binding: 100%.
For Mitogen-activated protein kinase kinase kinase 3 (MAP3K3, Homo sapiens, UniProt Q99759); binding, competition with immobilised ligand; 1 µM: remaining binding read 100%.
Calcium/calmodulin-dependent protein kinase kinase 1 (CAMKK1, Homo sapiens, UniProt Q8N5S9); binding, competition with immobilised ligand; 1 µM — remaining binding: 100%.
It gave 82% for remaining binding (Serine/threonine-protein kinase N1 (PKN1, Homo sapiens, UniProt Q16512); binding, competition with immobilised ligand; 1 µM).

Block 5
SMILES: CCN1/C(=C/C=C2\CCCC(/C=C/C3=[N+](CC)c4ccccc4C3(C)C)=C2NCCCCCCCCN2CCC(Nc3nc4ccccc4n3Cc3ccc(F)cc3)CC2)C(C)(C)c2ccccc21
Cell line: U-87 MG
Tested at: concentration not given
Reference: DMSO
It gave -1.46 for “log2 fold change” (refers to: HFE).
For refers to: GNA13 mRNA: “log2 fold change” read 0.979.
It gave 4.45 for “log2 fold change” (refers to: MMP1 mRNA).
refers to: RIPOR3 mRNA — “log2 fold change”: -1.05.
refers to: DISP2 mRNA — “log2 fold change”: -1.45.
It gave -1.06 for “log2 fold change” (refers to: MGST3 mRNA).
It gave 1.13 for “log2 fold change” (refers to: PRKAB1 mRNA).
The “log2 fold change” was 1.74 (refers to: HSPE1-MOB4 mRNA).
For refers to: BCL3 mRNA: “log2 fold change” read -0.841.
For refers to: CTH mRNA: “log2 fold change” read 1.89.
The “log2 fold change” was 0.98 (refers to: PCMTD1 mRNA).
